Published values pooled from the literature.
Compare with care: the assays were run in different laboratories. Values joined by “and” are separate records of one study, mostly repeats; a detail may differ. ± gives the spread as reported.
T1: TOA1/TOA2 1-286; 1-122 (Saccharomyces cerevisiae); chain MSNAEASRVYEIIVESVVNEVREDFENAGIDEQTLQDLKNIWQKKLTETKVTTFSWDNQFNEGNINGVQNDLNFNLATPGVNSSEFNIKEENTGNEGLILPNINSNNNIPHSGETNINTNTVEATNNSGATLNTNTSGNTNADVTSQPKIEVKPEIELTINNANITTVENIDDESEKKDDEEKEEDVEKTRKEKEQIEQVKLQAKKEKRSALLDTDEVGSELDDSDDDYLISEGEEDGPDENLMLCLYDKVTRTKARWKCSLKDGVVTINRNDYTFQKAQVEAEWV; chain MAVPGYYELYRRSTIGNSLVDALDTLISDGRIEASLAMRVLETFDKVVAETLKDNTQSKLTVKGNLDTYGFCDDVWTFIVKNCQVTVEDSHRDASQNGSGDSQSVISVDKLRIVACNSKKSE
B1: human dermcidin; sequence looked up; chain YDPEAASAPGSGNPCHEASAAQKENAGEDPGLARQAPKPRKQRSSLLEKGLDGAKKAVGGLGKLGKDAVEDLESVGKGAVHDVKDVLDSVL
B2: PP6 regulatory subunit 3 (human); sequence looked up; chain MFWKFDLHSSSHIDTLLEREDVTLKELMDEEDVLQECKAQNRKLIEFLLKAECLEDLVSFIIEEPPQDMDEKIRYKYPNISCELLTSDVSQMNDRLGEDESLLMKLYSFLLNDSPLNPLLASFFSKVLSILISRKPEQIVDFLKKKHDFVDLIIKHIGTSAIMDLLLRLLTCIEPPQPRQDVLNWLNEEKIIQRLVEIVHPSQEEDRHSNASQSLCEIVRLSRDQMLQIQNSTEPDPLLATLEKQEIIEQLLSNIFHKEKNESAIVSAIQILLTLLETRRPTFEGHIEICPPGMSHSACSVNKSVLEAIRGRLGSFHELLLEPPKKSVMKTTWGVLDPPVGNTRLNVIRLISSLLQTNTSSINGDLMELNSIGVILNMFFKYTWNNFLHTQVEICIALILASPFENTENATITDQDSTGDNLLLKHLFQKCQLIERILEAWEMNEKKQAEGGRRHGYMGHLTRIANCIVHSTDKGPNSALVQQLIKDLPDEVRERWETFCTSSLGETNKRNTVDLVTTCHIHSSSDDEIDFKETGFSQDSSLQQAFSDYQMQQMTSNFIDQFGFNDEKFADQDDIGNVSFDRVSDINFTLNTNESGNIALFEACCKERIQQFDDGGSDEEDIWEEKHIAFTPESQRRSSSGSTDSEESTDSEEEDGAKQDLFEPSSANTEDKMEVDLSEPPNWSANFDVPMETTHGAPLDSVGSDVWSTEEPMPTKETGWASFSEFTSSLSTKDSLRSNSPVEMETSTEPMDPLTPSAAALAVQPEAAGSVAMEASSDGEEDAESTDKVTETVMNGGMKETLSLTVDAKTETAVFKSEEGKLSTSQDAACKDAEECPETAEAKCAAPRPPSSSPEQRTGQPSAPGDTSVNGPV
B3: gamma-glutamyl hydrolase (human); sequence looked up; chain RPHGDTAKKPIIGILMQKCRNKVMKNYGRYYIAASYVKYLESAGARVVPVRLDLTEKDYEILFKSINGILFPGGSVDLRRSDYAKVAKIFYNLSIQSFDDGDYFPVWGTCLGFEELSLLISGECLLTATDTVDVAMPLNFTGGQLHSRMFQNFPTELLLSLAVEPLTANFHKWSLSVKNFTMNEKLKKFFNVLTTNTDGKIEFISTMEGYKYPVYGVQWHPEKAPYEWKNLDGISHAPNAVKTAFYLAEFFVNEARKNNHHFKSESEEEKALIYQFSPIYTGNISSFQQCYIFD
UniProt Q64663, sequence (whole entry, unmodified, looked up): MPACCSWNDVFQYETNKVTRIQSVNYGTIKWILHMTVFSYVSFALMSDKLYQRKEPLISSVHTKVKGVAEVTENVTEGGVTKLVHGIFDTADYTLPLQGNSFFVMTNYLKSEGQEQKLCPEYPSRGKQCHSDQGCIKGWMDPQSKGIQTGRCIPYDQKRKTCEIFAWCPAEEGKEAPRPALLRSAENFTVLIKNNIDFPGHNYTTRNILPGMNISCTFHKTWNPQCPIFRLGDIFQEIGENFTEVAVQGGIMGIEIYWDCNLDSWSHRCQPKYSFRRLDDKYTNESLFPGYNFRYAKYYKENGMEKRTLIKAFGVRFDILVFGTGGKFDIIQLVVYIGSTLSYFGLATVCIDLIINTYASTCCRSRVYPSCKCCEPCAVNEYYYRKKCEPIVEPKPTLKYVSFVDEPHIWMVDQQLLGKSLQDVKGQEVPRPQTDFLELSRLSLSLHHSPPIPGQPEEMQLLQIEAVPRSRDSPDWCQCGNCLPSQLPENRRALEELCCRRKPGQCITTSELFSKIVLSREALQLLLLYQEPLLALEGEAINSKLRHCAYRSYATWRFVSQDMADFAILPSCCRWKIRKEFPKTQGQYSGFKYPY
UniProt P29055, sequence (whole entry, looked up): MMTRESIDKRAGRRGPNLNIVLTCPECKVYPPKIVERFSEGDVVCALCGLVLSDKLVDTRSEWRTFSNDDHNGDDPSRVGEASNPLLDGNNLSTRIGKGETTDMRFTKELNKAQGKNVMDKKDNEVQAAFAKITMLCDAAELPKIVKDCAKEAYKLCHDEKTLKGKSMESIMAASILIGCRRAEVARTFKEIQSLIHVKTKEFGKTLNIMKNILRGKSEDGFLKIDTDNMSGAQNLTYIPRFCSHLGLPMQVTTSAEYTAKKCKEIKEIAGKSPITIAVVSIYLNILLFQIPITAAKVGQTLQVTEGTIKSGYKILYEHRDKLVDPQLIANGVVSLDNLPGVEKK
UniProt P26368, sequence (whole entry, looked up): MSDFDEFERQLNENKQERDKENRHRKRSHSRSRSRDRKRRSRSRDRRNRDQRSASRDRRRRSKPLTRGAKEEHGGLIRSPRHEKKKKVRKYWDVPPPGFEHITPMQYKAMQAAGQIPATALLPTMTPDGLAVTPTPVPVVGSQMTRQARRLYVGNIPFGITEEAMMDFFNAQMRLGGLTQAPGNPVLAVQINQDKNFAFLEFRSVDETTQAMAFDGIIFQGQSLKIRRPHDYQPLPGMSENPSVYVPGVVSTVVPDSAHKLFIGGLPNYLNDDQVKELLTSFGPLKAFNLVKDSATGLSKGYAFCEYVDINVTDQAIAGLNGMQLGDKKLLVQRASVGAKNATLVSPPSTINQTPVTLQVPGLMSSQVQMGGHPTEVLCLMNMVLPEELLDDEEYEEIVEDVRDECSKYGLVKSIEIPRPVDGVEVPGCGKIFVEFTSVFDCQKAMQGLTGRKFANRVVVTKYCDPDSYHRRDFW

With `Neuropeptide Y` the retention time was 9.62 min (RP-HPLC; HALO C18 column; 25 µM, acetic acid/acetonitrile, 25 min gradient).
For `GEMVGQARILAQATSDLVNAIKDA`, “mean rupture force” read 45.3 pN (vinculin head domain Vd1; complex rupture, AFM single-molecule force spectroscopy; peptide; double traces, C-terminal pulling, 800 nm/s).
Under “log2 fold change”, `human heat shock protein beta-1` is recorded as 0.51 (PP6C (human); co-immunoprecipitation, IP-MS; CYB5R4 knockout cells; concentration not given; relative to: CYB5R4 knockout over parental).
For `SVWLRKETRV`, “normalised SPR binding response” read 97.1 normalised RU (construct, MBP fusion, human SCRIB, PDZ 3-4; surface plasmon resonance; peptide; concentration not given; higher = stronger binding).
`TTGTGCTACGGTCTCTCCACCCCCTGCTGCTGCTGTCAAGTCAATCGGTCC (dsDNA; 5'-amino-C6 primer)` has a Kd of 109 ± 46.9 nM (T1, TOA1/TOA2 1-286; 1-122 (Saccharomyces cerevisiae); array; double-stranded DNA, one strand shown; TFIIA alone).
`colistin` gave an MIC of no more than 1 µg/mL (Pseudomonas aeruginosa; clinical isolate RKI 589/12).
For `cytidine monophosphate`, “log2 fold change” read -0.222 (adenosine A2A receptor thermostabilised; equilibrium dialysis LC-MS; concentration not given; relative to: no protein).
For `Peginesatide`, the phosphorylation level was 5.3 fold (UT7/EPO; tyrosine phosphorylation, LC-MS/MS phosphoproteomics, GluC, item: TOP2B tyrosine 928; 10 nM, 15 min, added: 10 U/mL EPO; relative to: vehicle).
With `CCCCCGCGCCTACGCAAGTTTTCCGGATCCGTCCATCAAGTCAATCGGTCC (dsDNA; 5'-amino-C6 primer)` the Kd was 3.51 ± 0.58 nM (SUA7 full length assumed (Saccharomyces cerevisiae, UniProt P29055); array; double-stranded DNA, one strand shown; TFIIB alone).
`B1 (human dermcidin)`: “log2 fold change” -0.4 (PP6C (human); co-immunoprecipitation, IP-MS; CYB5R4 knockout cells; concentration not given; relative to: CYB5R4 knockout over parental).
For `alpinetin`, the inhibition was 25.2% and 29% (BSA glycation; fluorescence; concentration not given, added: methylglyoxal).
`NRVDSKETEC` gave a binding intensity of 0.182 (construct, MBP fusion, human SCRIB, PDZ 3-4; automated holdup; peptide, purified PDZ protein; concentration not given, unit not given; relative to: biotin control resin, higher = stronger binding).
With `human ME2 D102S` the activation fold was 0.9 (enzyme activity, activator, NADH absorbance; recombinant enzyme; range over 0 to 5 mM, pH 7.4; relative to: wild type).
For `human GFAP`, “log2 fold change” read 0.33 (PP6C (human); co-immunoprecipitation, IP-MS; CYB5R4 knockout cells; concentration not given; relative to: CYB5R4 knockout over parental).
The binding intensity of `GSGAGKESYV` is reported as 0.311 (construct, MBP fusion, human SCRIB, PDZ 3-4; automated holdup; peptide, crude extract; concentration not given, corrected by standard peak, unit not given; relative to: biotin control resin, higher = stronger binding).
For `B2 (PP6 regulatory subunit 3)`, “log2 fold change” read -0.79 (PP6C (human); co-immunoprecipitation, IP-MS; CYB5R4 knockout cells; concentration not given; relative to: CYB5R4 knockout over parental).
With `11-deoxycorticosterone` the Kd was 4030 nM (CYP11B2 (human); substrate binding, stopped-flow global kinetic fitting; purified enzyme; model, 4-state CS, linear, added: equimolar adrenodoxin).
`QDEKVKESYV` gave a binding intensity of 0.531 (construct, MBP fusion, human SCRIB, PDZ 3-4; automated holdup; peptide, crude extract; concentration not given, corrected by standard peak, unit not given; relative to: biotin control resin, higher = stronger binding).
Under “log2 fold change”, `B3 (gamma-glutamyl hydrolase)` is recorded as 0.0044 (PP6C (human); co-immunoprecipitation, IP-MS; CYB5R4 knockout cells; concentration not given; relative to: CYB5R4 knockout over parental).
The remaining protein of `VVVGASGVGK` is reported as 0.831 and 0.838 and 0.898 (HLA-A*11:01 peptide-β2M single-chain trimer; western blot, item: pMHC-I; peptide, 293T cells; 6 h, unit not given, added: 100 µg/mL cycloheximide; relative to: time zero).
With `BzATP` the normalized current was 0.0843 and 0.154 and 0.122 (P2X purinoceptor 7 (P2rx7, Rattus norvegicus, UniProt Q64663, R125A); ion current, agonist, two-electrode voltage clamp; Xenopus oocytes; 1.235 µM).
`levan` has a dissociation constant of 0.83% (F protein (Phormia regina); binding, affinity electrophoresis).
`AAAAUGUUUUUUUCUAAGA (ssRNA)` gave a Kd of 463 ± 140 nM (U2AF2 148-342 (Homo sapiens, UniProt P26368); ITC; RNA).
With `FVTI` the Tm was 35.2 ± 0.2 °C (mouse H2-Dd/human β2m; thermal stability rescue, DSF; peptide; 20-fold molar excess, pH 7.2, peptide-deficient, UV-irradiated).
`QSARYRDTEL` has a binding intensity of 0.473 (construct, MBP fusion, human SCRIB, PDZ 3-4; automated holdup; peptide, crude extract; concentration not given, uncorrected, unit not given; relative to: biotin control resin, higher = stronger binding).
`Twinfilin-1 (human)`: “log2 fold change” 0.32 (PP6C (human); co-immunoprecipitation, IP-MS; CYB5R4 knockout cells; concentration not given; relative to: CYB5R4 knockout over parental).
The remaining protein of `VVVGAAGVGK` is reported as 0.833 and 0.83 and 0.834 (HLA-A*11:01 peptide-β2M single-chain trimer; western blot, item: pMHC-I; peptide, 293T cells; 12 h, unit not given, added: 100 µg/mL cycloheximide; relative to: time zero).

Repeated from above:
With `Neuropeptide Y` the retention time was 9.62 min (RP-HPLC; HALO C18 column; 25 µM, acetic acid/acetonitrile, 25 min gradient).
Under “log2 fold change”, `B3 (gamma-glutamyl hydrolase)` is recorded as 0.0044 (PP6C (human); co-immunoprecipitation, IP-MS; CYB5R4 knockout cells; concentration not given; relative to: CYB5R4 knockout over parental).
